Experimental data from different studies.
Compare with care: the assays were run in different laboratories. ± gives the spread as reported.
Organism: Plasmodium falciparum

Structure (SMILES)	read-out	mode	method	strain	time	setting	IC50
CO[C@H]1/C=C/O[C@@]2(C)Oc3c(C)c(O)c4c(O)c(c(/C=N/N5CCN(C)CC5)c(O)c4c3C2=O)NC(=O)/C(C)=C\C=C[C@H](C)[C@H](O)[C@@H](C)[C@@H](O)[C@@H](C)[C@H](OC(C)=O)[C@@H]1C	parasite growth	inhibitor	SYBR Green I	Cam3.1 R539T (MRA-1240)			5.77 µM
CCN(CC)CCCC(C)Nc1ccnc2cc(Cl)ccc12 (stereo not shown)	parasite growth			D6 and W2			0.02 to 0.15 µg/mL
N=C(CC(O)c1cc2c(F)cc(F)cc2c2cc(C(F)(F)F)ccc12)Nc1cccc(F)c1 (stereo not shown)	parasite growth		HRP2 ELISA	clinical isolates from Gabon		ex vivo, range over isolates	0.0006 to 0.0076 µM
O=C(CCCN1CC=C(n2c(=O)[nH]c3ccccc32)CC1)c1ccc(F)cc1				D10			1.58 µM
CC(=O)c1c(O)c(C)c(O)c2c1OC1=CC(=O)C(=C(C)NCCCC(=O)O)C(=O)C12C (stereo not shown)	parasite growth		[3H]hypoxanthine incorporation	K1		erythrocytic stages	12.7 µM
N=C(N)c1ccc(OCCCCCOc2ccc(C(=N)N)cc2)cc1	parasite growth	inhibitor	SYBR Green I	Cam3.1 R539T (MRA-1240)			0.0024 µM
Ic1ccc(N2CCN(Cc3c[nH]c4ncccc34)CC2)cc1	growth		SYBR Green	FVO	36 h		31 µM
N=C(N)NCCCCC(=O)Nc1cc(C(F)(F)F)cc(NC(=O)c2cc(C(=O)Nc3cc(C(F)(F)F)cc(NC(=O)CCCCNC(=N)N)c3O[C@@H]3CCNC3)ncn2)c1O[C@@H]1CCNC1	parasite growth	inhibitor	SYBR Green I	Cam3.1 R539T (MRA-1240)			0.865 µM
CCN(CC)CCCC(C)Nc1ccnc2cc(Cl)ccc12 (stereo not shown)				W2, resistant	72 h		0.107 ± 0.0175 µg/mL
N=C(CC(O)c1cc2c(F)cc(F)cc2c2cc(C(F)(F)F)ccc12)Nc1ccc(Br)cc1 (stereo not shown)							0.013 µM
C[C@]12C=CC(=O)C=C1CC[C@@H]1C2=CC[C@]2(C)[C@@H](C(=O)CN3CCN(c4cc(N5CCCC5)nc(N5CCCC5)n4)CC3)CC[C@@H]12				W2			0.794 µM
Cc1onc(-c2ccccc2)c1-c1ccc(S(N)(=O)=O)cc1	parasite growth	inhibitor	SYBR Green I	Cam3.1 R539T (MRA-1240)			> 100 µM
CC(O)(CS(=O)(=O)c1ccc(F)cc1)C(=O)Nc1ccc(C#N)c(C(F)(F)F)c1 (stereo not shown)			SYBR Green I	3D7	48 h	ring stage	> 10 µM
CCN(CC)CCCC(C)Nc1ccnc2cc(Cl)ccc12 (stereo not shown)	parasite growth			Dd2 kelch13 R539T, artemisinin resistant	72 h	ring stage	0.0685 ± 0.0001 µM
CN1CCN(c2ncc3nc(-c4cn(C)c5ccccc45)c(=O)n(C)c3n2)CC1	growth		SYBR Green	FVO	36 h		33 µM
CCCC1O[C@@H]2C[C@H]3[C@@H]4CCC5=CC(=O)C=C[C@]5(C)[C@H]4[C@@H](O)C[C@]3(C)[C@]2(C(=O)CO)O1 (stereo partly shown)				W2			2.51 µM
C/C(=N/NC(=O)c1cn(-c2ccccc2)nc1-c1ccc(C)cc1)c1c(O)cc(C)oc1=O	parasite growth		SYBR Green I fluorescence	3D7	72 h		11.8 µM
CNCCC=C1c2ccccc2CCc2ccccc21				3D7			10 µM
COC1=CC(c2ccc[nH]2)=N/C1=C\c1[nH]c(Cc2ccc(OC(F)(F)F)cc2)cc1Cc1ccc(OC(F)(F)F)cc1	parasite growth			DR4, artemisinin-resistant	72 h	synchronized rings	0.0343 µM
NC(=Nc1ccccc1)NC(=O)c1nc(Cl)c(N)nc1N				3D7			3.16 µM
COc1nc2ccc(Br)cc2cc1[C@@H](c1ccccc1)[C@@](O)(CCN(C)C)c1cccc2ccccc12	parasite growth	inhibitor	SYBR Green I	Cam3.1 R539T (MRA-1240)			0.72 µM
CCN(CC)CCCC(C)Nc1ccnc2cc(Cl)ccc12 (stereo not shown)	growth		[3H]-hypoxanthine uptake	Dd2	96 h		0.026 ± 0.001 µM
C=CC[N+](C)(C)c1ccc(CCC(=O)CCc2ccc([N+](C)(C)CC=C)cc2)cc1				3D7			0.1 µM
O=C1C(O)=C([C@H]2CC[C@H](c3ccc(Cl)cc3)CC2)C(=O)c2ccccc21	growth			C2B	48 h		> 25 µM
CNCCC(Oc1ccccc1OC)c1ccccc1 (stereo not shown)				Dd2			2.51 µM

Repeated from above:
Structure (SMILES)	read-out	mode	method	strain	time	setting	IC50
CCCC1O[C@@H]2C[C@H]3[C@@H]4CCC5=CC(=O)C=C[C@]5(C)[C@H]4[C@@H](O)C[C@]3(C)[C@]2(C(=O)CO)O1 (stereo partly shown)				W2			2.51 µM
O=C1C(O)=C([C@H]2CC[C@H](c3ccc(Cl)cc3)CC2)C(=O)c2ccccc21	growth			C2B	48 h		> 25 µM
